# Measured values of several laboratories.
# Protocols differ between the studies behind these lines. Values joined by “and” are separate records of one study, mostly repeats; a detail may differ.
# Target: Serine/threonine-protein kinase SIK3 (SIK3, Homo sapiens, UniProt Q9Y2K2)
Compound,test,system,conditions,scale,measurement,result
CN1CC[C@@H](COc2cnc(C#N)cc2-c2ccn3nc(NC(=O)C4CC4)cc3c2)C1,"enzyme activity, inhibitor",,1 µM,,inhibition,83%
CNC1C[S+]2CC[S+]3CC[S+](C1)[Ru-4]321([N]=C=S)[n]2c3ccc(OC)cc3c3c4c(c5cc(F)c[n+]1c5c32)C(=O)NC4=O (stereo not shown),KinomeScan,,0.1 µM,baseline: untreated,remaining binding,85%
CNC(=O)C[C@H](Cc1ccc(C#N)cc1)NC(=O)c1cc(-c2ccc(CN[C@H](C)c3ccc(C)cc3)o2)ccc1Cl,"enzyme activity, inhibitor",,1 µM,,activity vs control,119%
Cc1ccc(C(=O)Nc2ccc(CN3CCN(C)CC3)c(C(F)(F)F)c2)cc1C#Cc1cnc2cccnn12,"target engagement, NanoBRET",human cells,,,upper asymptote,6040
COc1c(Cl)cccc1Nc1c(-c2ccncc2C#C[C@@]2(C)CCCN2C(=O)/C=C/CN(C)C)[nH]c2c1C(=O)NCC2,"binding, competition with immobilised ligand",,3 µM,,remaining binding,74%
CC(C)=CC1OC(C)(C)C2C=C3C(=O)C(Cl)=CC(O)C3C3C(O)C4OC4C(=O)C132 (stereo not shown),"cell-free assay, competition with immobilised ligand",,10 µM,,remaining binding,88%
N[C@H]1CC[C@H](Nc2nccc(-c3cccnc3Oc3ccc(NC(=O)NC4CC4)c4ccccc34)n2)CC1,kinobead competition pulldown,HEK293/HCT116 lysate mixture,"10 µM, 1 h, 4 °C",lower = stronger competition,log2 LFQ intensity,20.9 and 18.4 and 20 and 18.7
CCN1CCN(Cc2ccc(C(=O)Nc3ccc(C)c(NCc4cnc5[nH]ccc5c4OC)c3)cc2C(F)(F)F)CC1,"binding, competition with immobilised ligand",,1 µM,,remaining binding,52%
CNC(=O)C1CCN(c2cc(C)c(F)cc2NC(=O)c2ccc(-c3cc(O)ccc3C)c(C)c2)CC1,"binding, competition with immobilised ligand",,1 µM,,remaining binding,84%
C=CC(=O)N1CCCC(n2c(=O)c3ncccc3n(Cc3ccc(Oc4ccccc4)cc3)c2=O)C1 (stereo not shown),"cell-free assay, competition with immobilised ligand",,1 µM,,remaining binding,82%
C=CC(=O)N1Cc2nc(-c3cc(-c4cc(Cl)cnc4Cl)c(F)cc3F)n(-c3ccncn3)c2C1,"cell-free assay, inhibitor",,1 µM,,inhibition,-5.8%
COc1cc(Nc2nccc(-c3cnn4nc(OC)ccc34)n2)cc(C(F)(F)F)c1,"binding, competition with immobilised ligand",,1 µM,,remaining binding,100%
COc1ccccc1-c1ccn2nc(NC(=O)C3CC3)cc2c1,,,,baseline: SIK2 Ki over SIK3 Ki,selectivity ratio,18 fold
C=CC(=O)N1CCc2ccc(-n3c(=O)ccc4cnc5ccc(-c6cnn(C)c6)cc5c43)cc21,KINOMEscan,,1 µM,baseline: DMSO control,remaining binding,100%
Nc1ncc2c(n1)-c1c([nH]c3ccc(C4=CCOCC4)cc13)CCC2,"binding, competition with immobilised ligand",,1 µM,,remaining binding,84%
O=C(Cc1ccc(OCc2ccccc2)cc1)NC1(C(=O)O)CCN(C(=O)c2ccc(-c3cccc(Cl)c3)cc2)CC1,"enzyme activity, inhibitor",,10 µM,,activity vs control,115%
CCn1cc(C(=O)O)c(=O)c2c(N)c(F)c(NC3CCCCC3)cc21,kinase activity,,"0.1 µM, added: ATP at Km",,inhibition,1.3%
Cc1cnc2nc1Nc1cccc(c1)COC/C=C/COCc1cc(ccc1OCCN1CCOCC1)N2,kinase binding panel,,concentration not given,baseline: control,remaining binding,100%
CN1CCN(Cc2ccc(-c3ccc(CO[C@H]4CCC[C@@H]4NC(=O)c4cc(-c5cnn(C)c5)cnc4N)cc3)cc2)CC1,"enzyme activity, inhibitor",,0.1 µM,,inhibition,11%

# For quick reference, copied from above:
Compound,test,system,conditions,scale,measurement,result
C=CC(=O)N1CCCC(n2c(=O)c3ncccc3n(Cc3ccc(Oc4ccccc4)cc3)c2=O)C1 (stereo not shown),"cell-free assay, competition with immobilised ligand",,1 µM,,remaining binding,82%
C=CC(=O)N1Cc2nc(-c3cc(-c4cc(Cl)cnc4Cl)c(F)cc3F)n(-c3ccncn3)c2C1,"cell-free assay, inhibitor",,1 µM,,inhibition,-5.8%
COc1cc(Nc2nccc(-c3cnn4nc(OC)ccc34)n2)cc(C(F)(F)F)c1,"binding, competition with immobilised ligand",,1 µM,,remaining binding,100%
